Assay results collected from several papers.
Lines come from different studies, so protocols differ. ± marks the error that the study gave.

With N#C[C@]1(CO)O[C@@H](n2cnc3c(=O)[nH]c(N)nc32)C[C@@H]1O the IC50 was 0.042 ± 0.034 µM (Hepatitis B virus; Southern blot; Huh-7 transfected, entecavir-resistant L180M/S202G/M204V).
For CCCCCOc1c(OC)cc(NC(C)CCCNC(=O)C(N)CCCN)c2nc(C(C)(C)C)ccc12 (stereo not drawn), the IC50 was greater than 20 µg/mL (Staphylococcus aureus; bacterial growth; MRSA ATCC 33591).
The IC50 of O=c1c(-c2ccc(O)cc2)coc2cc(O)ccc12 is reported as greater than 40 µM (Human betaherpesvirus 5; viral replication, absorbance; human Fibroblast; 72 h).
`guanidine hydrochloride` has an IC50 of 682 µM (coxsackievirus B3; cytopathic effect; HeLa, 97927 I1207M; 48 h).
With Cc1ccc(Cn2cc(C=O)c3cc([N+](=O)[O-])ccc32)cc1 the IC50 was greater than 85 µM (Trypanosoma brucei gambiense; trypomastigotes, IL1922).
With Nc1nc(N)nc(NC2CC2)n1 the IC50 was 1.27 µg (Lucilia cuprina; larval weight gain; LS strain, larvae on impregnated cotton wool; 24 h).
For C[C@@H]1CC[C@H]2[C@@H](C)C(=O)O[C@@H]3O[C@@]4(C)CC[C@@H]1[C@]32OO4, the IC50 was 3.23 ± 1.92 µM (Leishmania tarentolae; viability, resazurin; promastigotes, YEM/PBS; 48 h, 26 °C, with: 10% FCS).
CCCCCCC(C)CC1=C(O)C(=O)c2ccccc2C1=O (stereo not drawn) has an IC50 of 0.0962 µM (Plasmodium berghei; parasite growth, luciferase; Huh-7; 48 h, liver stage).
O=c1cc(-c2ccc(O)c(O)c2)oc2cc(O)cc(O)c12 gave an IC50 of 3.6 ± 0.7 µM (human cytomegalovirus; viral replication, titre reduction; HEL fibroblasts, Towne).
CC(F)(P(=O)(O)O)P(=O)(O)O has an IC50 of greater than 10 µM (Trypanosoma cruzi; Vero cells, intracellular amastigotes; day 3 post-infection).
The IC50 of CC(C)C12C=CC(C)(CC1)OO2 (stereo not drawn) is reported as 25.2 ± 5.4 µM (Leishmania tarentolae; viability, resazurin; promastigotes, YEM/PBS; 48 h, 26 °C, with: 10% FCS).
O=C1C[C@@H](c2ccc(O)cc2)Oc2cc(O)cc(O)c21 gave an IC50 of 32 µM (Human betaherpesvirus 5; viral replication, absorbance; human Fibroblast; 72 h).
CC[C@H](CO)Nc1nc(NCc2ccccc2O)c2ncn(C(C)C)c2n1 has an IC50 of 5.3 ± 0.9 µM (Human alphaherpesvirus 1; viral replication, plaque reduction; HFFF, 17 thymidine kinase-deleted, GFP; 3 days).
C#C[C@]1(CO)O[C@@H](n2cnc3c(=O)[nH]c(N)nc32)C[C@@H]1O gave an IC50 of 0.0016 µM (Human immunodeficiency virus 1; cytopathic effect, MTT; MT4).
With CCOc1ccc(Nc2c3c(nc4ccccc24)CCC3)cc1 the IC50 was 5.35 ± 0.18 µM (Leishmania donovani; DD8 resistant line, intracellular amastigotes).
CCCCCCCCNC(C)C(O)c1ccc(SC(C)C)cc1 (stereo not drawn) gave an IC50 of 1.7 µM (Plasmodium falciparum; parasite proliferation, SYBR Green; 3D7; 72 h).
For O=C(C[n+]1ccc2ccccc2c1)c1ccc2ccc3ccccc3c2c1, the IC50 was 3.4 µM (Candida albicans; biofilm formation, XTT; SC5314; 24 h, 37 °C).
With Cc1cn([C@H]2C[C@H](N=[N+]=[N-])[C@@H](CO)O2)c(=O)[nH]c1=O the IC50 was 0.1941 ± 0.0016 µM (HIV-1; virus neutralization; MN).
C[C@@]1(F)[C@H](O)[C@@H](CO)O[C@H]1n1ccc(N)nc1=O gave an IC50 of 33.9 µM (Norwalk virus; viral replication, inhibitor; RAW264.7).
The IC50 of CC(CCCCCC(F)(F)F)CC1=C(O)C(=O)c2ccccc2C1=O (stereo not drawn) is reported as 0.0171 µM (Plasmodium berghei; parasite growth, luciferase; Huh-7; 48 h, liver stage).
The IC50 of C[C@@H]1O[C@@H](O[C@H]2C[C@@H](O)[C@]3(CO)[C@H]4[C@H](O)C[C@]5(C)[C@@H](C6=CC(=O)OC6)CC[C@]5(O)[C@@H]4CC[C@]3(O)C2)[C@H](O)[C@H](O)[C@H]1O is reported as 0.147 ± 0.028 µM (transmissible gastroenteritis virus; viral replication, immunofluorescence; ST cells; 6 h post-infection, pretreated 1 h).
With CCCN(CCC)C(=S)NN=Cc1ccccn1.[Cl][Cu][Cl] the IC50 was 0.549 µM (Candida albicans; biofilm formation, XTT; SC5314; 24 h, 37 °C).
CCCCCCCOc1c(OC)cc(NC(C)CCCNC(=O)C(N)C(C)CC)c2nc(C(C)(C)C)ccc12 (stereo not drawn) has an IC50 of 2.34 µg/mL (Staphylococcus aureus; microbial growth; ATCC33591 MRSA; drug-resistant strain).
Nc1nc(O)c2ncn(COC(CO)CO)c2n1 has an IC50 of greater than 100 µM (Human betaherpesvirus 5; viral replication, absorbance; human Fibroblast; 72 h).
CCCCOc1c(OC)cc(NC(C)CCCN)c2nc(C(C)(C)C)cc(C)c12 (stereo not drawn) has an IC50 of 2.96 µg/mL (Staphylococcus aureus; microbial growth; ATCC33591 MRSA; drug-resistant strain).
For Fc1ccc(C2(Cn3cncn3)Cn3ccnc3O2)c(F)c1 (stereo not drawn), the IC50 was 4 to 60 µM (Trypanosoma cruzi; parasite growth; Tulahuen C4 amastigotes).
With CCCCCCOc1c(OC)cc(NC(C)CCCNC(=O)C(N)CCCN)c2nc(C(C)(C)C)ccc12 (stereo not drawn) the IC50 was greater than 20 µg/mL (Staphylococcus aureus; bacterial growth; MRSA ATCC 33591).
The IC50 of COc1ccc([C@@H]2CC(=O)c3c(O)cc(O)cc3O2)cc1O is reported as 31.5 µM (Betacoronavirus 1; viral replication; HRT-18, OC43; 24 h).
With CCCCCOc1c(OC)cc(NC(C)CCCNC(=O)C(N)Cc2ccccc2)c2nc(C(C)(C)C)ccc12 (stereo not drawn) the IC50 was 8.23 µg/mL (Staphylococcus aureus; microbial growth; ATCC33591 MRSA; drug-resistant strain).
O=Cc1cn(Cc2cccc(Cl)c2)c2ccc([N+](=O)[O-])cc12 gave an IC50 of greater than 79 µM (Trypanosoma brucei gambiense; trypomastigotes, IL1922).
For CCCCCOc1c(OC)cc(NC(C)CCCNC(=O)C(N)CCCCN)c2nc(C(C)(C)C)ccc12 (stereo not drawn), the IC50 was greater than 20 µg/mL (Staphylococcus aureus; bacterial growth; MRSA ATCC 33591).
For CCCCCCCCCC(F)(P(=O)(O)O)P(=O)(O)O, the IC50 was greater than 10 µM (Trypanosoma cruzi; Vero cells, intracellular amastigotes; day 3 post-infection).
CCCCCCOc1c(OC)cc(NC(C)CCCN)c2nc(C(C)(C)C)ccc12 (stereo not drawn) gave an IC50 of 2.77 µg/mL (Staphylococcus aureus; microbial growth; ATCC33591 MRSA; drug-resistant strain).
The IC50 of C#C[C@]1(CO)O[C@@H](n2cnc3c(N)nc(F)nc32)C[C@@H]1O is reported as 0.0003 µM (Human immunodeficiency virus 1; cytopathic effect, MTT; MT4).
The IC50 of CCCCCOc1c(OC)cc(NC(C)CCCNC(=O)C(N)Cc2cc3ccccc3[nH]2)c2nc(C(C)(C)C)ccc12 (stereo not drawn) is reported as 1.95 µg/mL (Staphylococcus aureus; microbial growth; ATCC33591 MRSA; drug-resistant strain).
The IC50 of C=C(C)CNCC(=C)C.Oc1c(Cl)c(Cl)c(Cl)c(Cl)c1Cl is reported as 4.44 µM (Candida albicans; biofilm formation, XTT; SC5314; 24 h, 37 °C).

A few entries again:
CCCCOc1c(OC)cc(NC(C)CCCN)c2nc(C(C)(C)C)cc(C)c12 (stereo not drawn) has an IC50 of 2.96 µg/mL (Staphylococcus aureus; microbial growth; ATCC33591 MRSA; drug-resistant strain).
The IC50 of O=c1c(-c2ccc(O)cc2)coc2cc(O)ccc12 is reported as greater than 40 µM (Human betaherpesvirus 5; viral replication, absorbance; human Fibroblast; 72 h).
CCCCCCCOc1c(OC)cc(NC(C)CCCNC(=O)C(N)C(C)CC)c2nc(C(C)(C)C)ccc12 (stereo not drawn) has an IC50 of 2.34 µg/mL (Staphylococcus aureus; microbial growth; ATCC33591 MRSA; drug-resistant strain).
